Published values gathered from unrelated publications.
Lines come from different studies, so protocols differ.
Sequence of UniProt P57059 (whole entry, looked up): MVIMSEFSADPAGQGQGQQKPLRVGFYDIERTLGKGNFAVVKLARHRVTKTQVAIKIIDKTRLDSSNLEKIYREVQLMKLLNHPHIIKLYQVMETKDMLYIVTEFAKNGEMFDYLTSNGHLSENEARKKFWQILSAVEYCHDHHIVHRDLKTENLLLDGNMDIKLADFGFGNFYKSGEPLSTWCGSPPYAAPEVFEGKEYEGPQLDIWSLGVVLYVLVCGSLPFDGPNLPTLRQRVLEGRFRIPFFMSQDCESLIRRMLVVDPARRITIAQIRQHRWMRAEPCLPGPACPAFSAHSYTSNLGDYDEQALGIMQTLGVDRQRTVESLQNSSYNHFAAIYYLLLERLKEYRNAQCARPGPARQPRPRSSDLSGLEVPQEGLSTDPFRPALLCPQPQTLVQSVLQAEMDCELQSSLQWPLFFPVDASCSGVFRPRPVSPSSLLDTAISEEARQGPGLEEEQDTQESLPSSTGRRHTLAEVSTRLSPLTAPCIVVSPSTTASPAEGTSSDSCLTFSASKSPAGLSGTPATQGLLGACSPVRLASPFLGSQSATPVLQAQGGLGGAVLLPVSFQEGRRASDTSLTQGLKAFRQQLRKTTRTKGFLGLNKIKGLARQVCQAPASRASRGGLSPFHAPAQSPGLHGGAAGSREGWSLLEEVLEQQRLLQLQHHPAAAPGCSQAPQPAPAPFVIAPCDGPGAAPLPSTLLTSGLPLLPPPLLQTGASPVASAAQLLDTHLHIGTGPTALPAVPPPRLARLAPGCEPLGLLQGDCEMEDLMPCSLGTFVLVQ
Sequence of UniProt Q96RG2 (whole entry, looked up): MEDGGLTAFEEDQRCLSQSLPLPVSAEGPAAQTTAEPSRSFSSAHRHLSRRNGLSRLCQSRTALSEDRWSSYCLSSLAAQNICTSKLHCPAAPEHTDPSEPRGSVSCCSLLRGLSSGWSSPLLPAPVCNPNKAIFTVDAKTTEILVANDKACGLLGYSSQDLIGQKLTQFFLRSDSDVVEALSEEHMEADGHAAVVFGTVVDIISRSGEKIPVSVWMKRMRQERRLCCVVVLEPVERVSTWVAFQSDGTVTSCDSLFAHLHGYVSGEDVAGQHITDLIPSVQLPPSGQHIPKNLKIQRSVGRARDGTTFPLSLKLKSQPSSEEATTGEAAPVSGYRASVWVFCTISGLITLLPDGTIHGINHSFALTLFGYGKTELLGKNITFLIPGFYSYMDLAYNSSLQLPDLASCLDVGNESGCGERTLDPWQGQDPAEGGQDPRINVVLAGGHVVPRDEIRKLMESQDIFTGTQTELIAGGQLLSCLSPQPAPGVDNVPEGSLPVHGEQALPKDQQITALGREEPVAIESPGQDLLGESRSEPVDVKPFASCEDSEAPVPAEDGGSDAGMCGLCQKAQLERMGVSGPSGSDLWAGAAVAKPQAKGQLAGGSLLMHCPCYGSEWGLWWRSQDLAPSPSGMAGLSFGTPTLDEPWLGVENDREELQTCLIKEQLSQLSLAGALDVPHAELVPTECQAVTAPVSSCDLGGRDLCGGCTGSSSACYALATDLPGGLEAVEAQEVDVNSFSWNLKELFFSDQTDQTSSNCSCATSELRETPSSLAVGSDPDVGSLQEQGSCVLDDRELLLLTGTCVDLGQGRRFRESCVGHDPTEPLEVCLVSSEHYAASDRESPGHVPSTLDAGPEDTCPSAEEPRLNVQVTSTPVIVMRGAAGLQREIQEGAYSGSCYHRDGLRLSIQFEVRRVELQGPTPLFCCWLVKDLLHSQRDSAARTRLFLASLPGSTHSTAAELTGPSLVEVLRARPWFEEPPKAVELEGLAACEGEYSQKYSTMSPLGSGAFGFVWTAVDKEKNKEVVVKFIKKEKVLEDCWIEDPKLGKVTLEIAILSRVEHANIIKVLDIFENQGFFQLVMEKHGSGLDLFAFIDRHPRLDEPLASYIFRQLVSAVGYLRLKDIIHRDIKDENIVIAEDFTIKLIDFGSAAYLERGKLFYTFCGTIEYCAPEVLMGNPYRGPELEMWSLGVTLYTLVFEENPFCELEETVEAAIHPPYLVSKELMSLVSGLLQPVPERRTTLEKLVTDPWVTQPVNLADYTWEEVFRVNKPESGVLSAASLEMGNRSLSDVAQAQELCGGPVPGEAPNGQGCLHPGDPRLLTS
Sequence of UniProt O43148 (whole entry, looked up): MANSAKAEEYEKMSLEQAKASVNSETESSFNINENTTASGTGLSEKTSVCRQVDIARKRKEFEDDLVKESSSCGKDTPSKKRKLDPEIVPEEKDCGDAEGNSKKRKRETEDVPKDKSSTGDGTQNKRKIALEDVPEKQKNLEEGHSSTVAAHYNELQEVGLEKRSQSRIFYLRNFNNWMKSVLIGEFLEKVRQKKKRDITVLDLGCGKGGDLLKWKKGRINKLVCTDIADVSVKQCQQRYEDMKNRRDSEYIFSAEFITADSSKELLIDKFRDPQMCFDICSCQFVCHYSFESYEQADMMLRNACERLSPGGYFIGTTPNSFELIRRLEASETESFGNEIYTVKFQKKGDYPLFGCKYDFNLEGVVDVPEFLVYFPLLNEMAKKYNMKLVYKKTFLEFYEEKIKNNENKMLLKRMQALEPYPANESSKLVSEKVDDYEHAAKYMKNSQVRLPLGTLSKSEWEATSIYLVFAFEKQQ
Sequence of UniProt O13828 (whole entry, looked up): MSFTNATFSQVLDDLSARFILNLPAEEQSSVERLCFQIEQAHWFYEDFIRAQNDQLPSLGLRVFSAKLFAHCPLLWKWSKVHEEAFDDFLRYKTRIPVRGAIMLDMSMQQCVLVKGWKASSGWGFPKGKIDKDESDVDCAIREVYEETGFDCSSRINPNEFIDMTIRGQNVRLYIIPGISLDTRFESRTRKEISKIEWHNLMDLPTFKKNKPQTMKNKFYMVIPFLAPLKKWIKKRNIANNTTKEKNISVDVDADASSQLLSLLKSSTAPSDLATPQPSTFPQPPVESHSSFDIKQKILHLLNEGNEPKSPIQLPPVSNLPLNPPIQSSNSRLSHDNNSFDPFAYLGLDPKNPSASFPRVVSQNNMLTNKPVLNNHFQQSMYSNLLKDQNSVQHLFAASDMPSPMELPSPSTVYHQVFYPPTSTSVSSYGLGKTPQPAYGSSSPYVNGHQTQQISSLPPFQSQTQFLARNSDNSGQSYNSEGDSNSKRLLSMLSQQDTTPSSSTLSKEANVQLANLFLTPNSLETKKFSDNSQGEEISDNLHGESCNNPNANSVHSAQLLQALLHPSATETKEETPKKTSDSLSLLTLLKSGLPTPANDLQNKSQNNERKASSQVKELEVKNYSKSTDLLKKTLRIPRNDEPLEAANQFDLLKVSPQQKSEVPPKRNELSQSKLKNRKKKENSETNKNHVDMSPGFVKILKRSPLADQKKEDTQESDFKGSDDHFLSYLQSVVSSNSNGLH
Sequence of UniProt P07550 (whole entry, looked up): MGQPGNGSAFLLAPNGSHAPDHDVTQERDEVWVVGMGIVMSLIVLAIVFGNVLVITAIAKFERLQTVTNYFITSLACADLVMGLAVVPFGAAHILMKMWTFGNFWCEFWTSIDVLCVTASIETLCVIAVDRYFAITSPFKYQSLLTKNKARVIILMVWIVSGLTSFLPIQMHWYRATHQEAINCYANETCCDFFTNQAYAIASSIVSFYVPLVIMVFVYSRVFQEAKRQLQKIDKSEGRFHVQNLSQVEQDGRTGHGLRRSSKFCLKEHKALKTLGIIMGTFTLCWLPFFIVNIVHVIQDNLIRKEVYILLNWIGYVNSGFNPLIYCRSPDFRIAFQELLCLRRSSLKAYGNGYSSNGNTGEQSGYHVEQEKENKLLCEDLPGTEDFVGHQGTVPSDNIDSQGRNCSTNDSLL
Sequence of UniProt O42275 (whole entry, looked up): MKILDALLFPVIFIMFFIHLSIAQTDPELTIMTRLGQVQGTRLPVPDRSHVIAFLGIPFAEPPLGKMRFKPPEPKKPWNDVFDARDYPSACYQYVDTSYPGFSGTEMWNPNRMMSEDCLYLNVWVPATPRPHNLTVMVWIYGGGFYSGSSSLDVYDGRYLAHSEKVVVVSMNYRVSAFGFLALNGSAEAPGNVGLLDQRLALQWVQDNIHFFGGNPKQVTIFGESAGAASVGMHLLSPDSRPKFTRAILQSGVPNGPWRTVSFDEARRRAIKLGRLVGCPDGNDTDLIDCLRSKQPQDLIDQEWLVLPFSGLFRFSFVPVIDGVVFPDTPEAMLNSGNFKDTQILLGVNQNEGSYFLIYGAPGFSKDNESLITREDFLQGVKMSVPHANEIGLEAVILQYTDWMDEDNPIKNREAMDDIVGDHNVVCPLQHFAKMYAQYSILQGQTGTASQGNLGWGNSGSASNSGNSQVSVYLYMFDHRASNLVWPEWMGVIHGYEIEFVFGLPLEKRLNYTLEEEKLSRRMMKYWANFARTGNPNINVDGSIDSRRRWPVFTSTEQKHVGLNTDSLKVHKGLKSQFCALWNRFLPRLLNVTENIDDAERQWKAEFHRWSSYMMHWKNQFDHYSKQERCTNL
Sequence of UniProt Q86X55 (whole entry, looked up): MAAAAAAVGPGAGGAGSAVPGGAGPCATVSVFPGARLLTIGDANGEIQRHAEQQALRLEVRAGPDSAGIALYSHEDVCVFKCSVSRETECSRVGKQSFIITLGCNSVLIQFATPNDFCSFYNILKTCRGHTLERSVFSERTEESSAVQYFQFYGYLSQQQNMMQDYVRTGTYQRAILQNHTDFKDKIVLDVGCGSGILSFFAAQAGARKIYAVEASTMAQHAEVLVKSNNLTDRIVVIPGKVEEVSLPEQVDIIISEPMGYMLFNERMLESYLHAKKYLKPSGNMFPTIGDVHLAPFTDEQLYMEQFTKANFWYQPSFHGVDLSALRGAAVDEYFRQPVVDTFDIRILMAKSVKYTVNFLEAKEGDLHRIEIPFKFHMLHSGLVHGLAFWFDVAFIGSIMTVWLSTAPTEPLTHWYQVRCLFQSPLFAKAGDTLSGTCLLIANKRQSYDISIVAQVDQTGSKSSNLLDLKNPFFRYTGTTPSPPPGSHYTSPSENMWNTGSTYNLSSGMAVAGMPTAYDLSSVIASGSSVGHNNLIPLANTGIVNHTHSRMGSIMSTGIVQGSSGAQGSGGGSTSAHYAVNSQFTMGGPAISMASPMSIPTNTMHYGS

Structure (SMILES) | target | assay | system | setting | inhibition [%]
CN[C@@H]1[C@H](O)[C@H](NC)[C@H]2O[C@]3(O)[C@H](O[C@@H]2[C@H]1O)O[C@H](C)C[C@H]3NC(=O)Cc1ccc(Cl)cn1 | Beta-2 adrenergic receptor (ADRB2, Homo sapiens, UniProt P07550) | ligand displacement, radioligand |  | 10 µM | -18
CN(C)[C@H]1C[C@@]23CC[C@@]4(O2)C(=CC[C@]2(C)[C@@H](c5ccc6ccncc6c5)CC[C@H]24)C=C3[C@@H](O)[C@@H]1O | Serine/threonine-protein kinase Sgk3 (SGK3, Homo sapiens, UniProt Q96BR1) | ATP probe labelling, inhibitor, KiNativ profiling |  | 0.1 µM | -1.6
O=C(NC1CCN(c2ncnc3[nH]cnc23)CC1)c1cccc(NS(=O)(=O)c2ccc(C(F)(F)F)cc2)c1 | mRNA cap guanine-N(7) methyltransferase (RNMT, Homo sapiens, UniProt O43148) | enzyme activity, inhibitor |  | 12.5 µM | 3.51
CC(=O)NC[C@@H]1[C@@H](O)C[C@H]2[C@H](O)C[C@@H](CO)N12 | human placental β-N-acetylglucosaminidase |  |  | 0.0428 µM, run 2, together with: p-nitrophenyl GlcNAc | 40.9
O=C(CN1CN(c2ccccc2)C2(CCN(C(=O)c3cnc4[nH]ncc4c3)CC2)C1=O)NCC(F)(F)F | 1-phosphatidylinositol 3-phosphate 5-kinase (PIKFYVE, Homo sapiens, UniProt Q9Y2I7) | inhibitor |  | concentration not given | < 50
C[C@H](NCc1ccc(-c2ccc(C(F)(F)F)cc2)cc1)C(N)=O | NMDA receptor polyamine site, rat | binding, radioligand binding | biochemical | 1 µM, together with: [3H]ifenprodil 2.0 nM | 2
CN(/N=C/c1ccccc1C(=O)O)c1nc(-c2ccccc2Cl)cs1 | Tyrosine-protein kinase JAK1 (JAK1, Homo sapiens, UniProt P23458) | enzyme activity, inhibitor |  | 1 µM | -18.3
CS(C)(=O)=Nc1ccc(-c2ccc(-c3nc4cc(O[C@@H]5CO[C@H]6[C@@H]5OC[C@H]6O)[nH]c4cc3F)cc2)cc1 | PAS domain-containing serine/threonine-protein kinase (PASK, Homo sapiens, UniProt Q96RG2) | enzyme activity, inhibitor |  | 10 µM | -3
CC(C)[C@H]1NC(=O)C[C@H]2/C=C/CCSSC[C@@H](NC1=O)C(=O)N[C@H](Cc1cccc3ccccc13)C(=O)NCC(=O)O2 | Serine/threonine-protein kinase SIK1 (SIK1, Homo sapiens, UniProt P57059) |  |  | 10 µM | 4.2
NC1CCCCC1 | Acetylcholinesterase (ache, Electrophorus electricus, UniProt O42275) | enzyme activity, inhibitor, Ellman |  | 20 µM | 34.6
BP(=O)(OC[C@H]1O[C@@H](n2c[n+](C)c3c(O)nc(N)nc32)[C@H](O)[C@@H]1O)OP(=O)([O-])CP(=O)(O)O (stereo partly shown) | mRNA decapping complex subunit 2, with Dcp1 (dcp2, Schizosaccharomyces pombe, UniProt O13828) |  |  | 200 µM, 0.5 h | 40
COC(=O)C(C)(COP(=O)(OC)OCCCCCCNC(=O)c1cc2ccccc2oc1=O)C(=O)CSC(C)=O (stereo not shown) | Retinal rod rhodopsin-sensitive cGMP 3',5'-cyclic phosphodiesterase subunit delta (PDE6D, Homo sapiens, UniProt O43924) | enzyme activity, inhibitor |  | 5 µM | 23.7
N#Cc1ccc(N2N=C3c4ccc(C(=O)O)cc4CCC3C2C2CCCC2)cc1Cl (stereo not shown) | Histone-arginine methyltransferase CARM1 (CARM1, Homo sapiens, UniProt Q86X55) | enzyme activity, inhibitor |  | 10 µM | 2

Some of these lines once more:
Structure (SMILES) | target | assay | system | setting | inhibition [%]
BP(=O)(OC[C@H]1O[C@@H](n2c[n+](C)c3c(O)nc(N)nc32)[C@H](O)[C@@H]1O)OP(=O)([O-])CP(=O)(O)O (stereo partly shown) | mRNA decapping complex subunit 2, with Dcp1 (dcp2, Schizosaccharomyces pombe, UniProt O13828) |  |  | 200 µM, 0.5 h | 40
